Results from different studies.
Every numbered part comes from another study and shows a few of its results, in no order.
Chain of UniProt P19784 (whole entry, looked up): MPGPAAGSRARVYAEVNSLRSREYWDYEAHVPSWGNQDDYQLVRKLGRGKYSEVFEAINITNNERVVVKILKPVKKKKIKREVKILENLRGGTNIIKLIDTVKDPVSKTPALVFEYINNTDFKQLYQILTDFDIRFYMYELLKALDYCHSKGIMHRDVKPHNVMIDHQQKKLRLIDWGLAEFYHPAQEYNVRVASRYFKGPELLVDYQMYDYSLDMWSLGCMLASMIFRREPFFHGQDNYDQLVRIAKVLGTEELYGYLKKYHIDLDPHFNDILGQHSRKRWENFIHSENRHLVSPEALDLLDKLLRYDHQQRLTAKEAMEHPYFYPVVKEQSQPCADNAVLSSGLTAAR
Chain of UniProt Q8IVH8 (whole entry, looked up): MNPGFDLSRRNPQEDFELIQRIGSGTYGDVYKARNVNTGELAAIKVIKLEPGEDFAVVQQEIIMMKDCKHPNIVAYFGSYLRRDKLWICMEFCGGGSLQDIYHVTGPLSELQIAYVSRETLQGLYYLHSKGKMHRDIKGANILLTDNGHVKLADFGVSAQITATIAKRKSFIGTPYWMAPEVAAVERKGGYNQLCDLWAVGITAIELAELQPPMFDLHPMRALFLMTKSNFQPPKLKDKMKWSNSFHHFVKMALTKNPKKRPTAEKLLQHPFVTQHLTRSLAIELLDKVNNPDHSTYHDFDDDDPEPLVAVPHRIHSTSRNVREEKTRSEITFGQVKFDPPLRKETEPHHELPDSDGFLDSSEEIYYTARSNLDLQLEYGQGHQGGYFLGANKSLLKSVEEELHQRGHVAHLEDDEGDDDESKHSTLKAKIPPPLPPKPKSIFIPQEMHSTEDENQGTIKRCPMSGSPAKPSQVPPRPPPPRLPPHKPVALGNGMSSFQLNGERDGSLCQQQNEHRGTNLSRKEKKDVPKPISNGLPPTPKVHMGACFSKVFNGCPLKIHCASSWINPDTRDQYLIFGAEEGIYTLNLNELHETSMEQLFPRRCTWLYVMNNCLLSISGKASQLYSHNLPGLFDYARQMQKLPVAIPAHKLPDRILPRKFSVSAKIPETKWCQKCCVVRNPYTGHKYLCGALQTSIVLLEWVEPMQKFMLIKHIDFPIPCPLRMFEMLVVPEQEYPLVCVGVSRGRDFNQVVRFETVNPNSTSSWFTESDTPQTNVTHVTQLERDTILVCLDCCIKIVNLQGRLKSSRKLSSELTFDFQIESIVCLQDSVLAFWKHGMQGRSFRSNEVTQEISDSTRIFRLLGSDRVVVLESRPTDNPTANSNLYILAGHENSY

Study 1
Target: Fragile X messenger ribonucleoprotein 1, C-terminal low-complexity region (Fmr1, Mus musculus, UniProt P35922)
Method: RNA Bind-n-Seq
Molecule type: RNA
Medium: in vitro
Concentration: 200 nM
Notes: whole 134-nt RNA, ends assumed
Added: 150 mM LiCl
Reference: input library
Reading: higher = stronger binding
Quantity: log2 enrichment
Library: 7-deaza-guanosine replaces G
Constant ends, left off below: GGGAGUUCUACAGUCCGACGAUC … UGGAAUUCUCGGGUGUCAAGG
CUGUGCUACACAUCGUAUGUACCGAAUCGGCCCCCCCGGGGCCCCCCCGGGCCCCCCCGGGAAAGUAUUAUGUUACGCCGUUCGGAUCUG: -1.86
UUUGCAGGGAGUGGUACGGGUAUCACUUUCCGGAGCUGGUGAAGAUCAUCAACGACAAUGCCACAUACUGCCGUCUUGCCCAGUUUAUUG: -0.587
CAAGUCCUGUGCUACACAUCGUAUGUACCGAAUCGGAAAGGUUUGGUUUUUUUGGAAAGUAUUAUGUUACGCCGUUCGGAUCUGCACUUC: -1.69
ACCAUGCAGGUGGGCAUCUUUGGGAAGUGGGGCAAGGGGGGGAUAGGGAUGGGGGUAACACUUUGGGAACAGGUGGUCCCAGGUCGUUUC: 1.07
UCCUGUGCUACACAUCGUAUGUACCGAAUCAAAUUUUUUUAAAUUUUUUUAAAUUUAAAAAAGUAUUAUGUUACGCCGUUCGGAUCUGCA: -2.87
AAGUCCUGUGCUACACAUCGUAUGUACCGAAUCGGGGAAAAGGGAAAAGGGAAAAGGAAAGUAUUAUGUUACGCCGUUCGGAUCUGCACU: 0.0241
UCCUGUGCUACACAUCGUAUGUACCGAAUCAAACCCCCCCAAAUUUAAACCCCCCCAAAAAAGUAUUAUGUUACGCCGUUCGGAUCUGCA: 2.25
UGUGCUACACAUCGUAUGUACCGAAUCGGGGUUUUUUUGGGGUUUUUUUGGGGUUUUUUUGGAAAGUAUUAUGUUACGCCGUUCGGAUCU: 1.75

Study 2
Target: ATP-dependent RNA helicase DDX3X, helicase core (DDX3X, Homo sapiens, UniProt O00571, residues 132-607)
Chain of UniProt O00571 (132-607, looked up): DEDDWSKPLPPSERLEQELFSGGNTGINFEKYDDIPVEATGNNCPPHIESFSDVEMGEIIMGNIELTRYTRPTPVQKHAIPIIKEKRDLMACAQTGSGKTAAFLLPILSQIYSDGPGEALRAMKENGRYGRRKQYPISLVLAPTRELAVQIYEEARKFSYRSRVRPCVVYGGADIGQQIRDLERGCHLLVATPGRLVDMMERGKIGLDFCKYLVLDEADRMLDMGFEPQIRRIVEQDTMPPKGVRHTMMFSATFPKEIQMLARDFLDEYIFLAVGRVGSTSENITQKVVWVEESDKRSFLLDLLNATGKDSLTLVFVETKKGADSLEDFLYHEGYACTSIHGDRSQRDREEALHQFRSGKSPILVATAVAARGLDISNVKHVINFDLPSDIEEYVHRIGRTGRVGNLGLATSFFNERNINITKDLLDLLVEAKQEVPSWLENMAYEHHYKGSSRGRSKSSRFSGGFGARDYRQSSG
Method: RNA Bind-n-Seq
Molecule type: RNA
Medium: in vitro
Concentration: 90 pmol
Notes: 4-mer, random 30-nt RNA, single round
Added: 3 µM iPr-DMDA-PatA, 2 mM ADP, 2 mM phosphate
Reference: input library
Reading: higher = stronger binding
Quantity: 4-mer enrichment
AAGC: 1.04 fold
UUGA: 1.14 fold
UUGU: 0.974 fold
ACGA: 1.16 fold
AAAG: 1.47 fold
AGAU: 1.3 fold
CACU: 0.953 fold
GAUA: 1.21 fold

Other studies, line by line
O=C(O)[C@@H]1[C@@H](Cn2nnc3ccccc3c2=O)CC[C@H]1C(=O)c1ccc(OCCC2CCOCC2)cc1 — remaining binding (MAP4K3 (Homo sapiens, UniProt Q8IVH8); cell-free assay, competition with immobilised ligand; 1 µM): 100%
O=Nc1c(-c2c(O)[nH]c3ccccc23)[nH]c2ccccc12 — remaining activity (CSNK2A2 (Homo sapiens, UniProt P19784); enzyme activity, inhibitor; 0.5 µM; reference: control): 75%
